Published values gathered from unrelated publications.
Lines come from different studies, so protocols differ. Numbers after ± are the reported error.
Chain of UniProt P49760 (whole entry, looked up): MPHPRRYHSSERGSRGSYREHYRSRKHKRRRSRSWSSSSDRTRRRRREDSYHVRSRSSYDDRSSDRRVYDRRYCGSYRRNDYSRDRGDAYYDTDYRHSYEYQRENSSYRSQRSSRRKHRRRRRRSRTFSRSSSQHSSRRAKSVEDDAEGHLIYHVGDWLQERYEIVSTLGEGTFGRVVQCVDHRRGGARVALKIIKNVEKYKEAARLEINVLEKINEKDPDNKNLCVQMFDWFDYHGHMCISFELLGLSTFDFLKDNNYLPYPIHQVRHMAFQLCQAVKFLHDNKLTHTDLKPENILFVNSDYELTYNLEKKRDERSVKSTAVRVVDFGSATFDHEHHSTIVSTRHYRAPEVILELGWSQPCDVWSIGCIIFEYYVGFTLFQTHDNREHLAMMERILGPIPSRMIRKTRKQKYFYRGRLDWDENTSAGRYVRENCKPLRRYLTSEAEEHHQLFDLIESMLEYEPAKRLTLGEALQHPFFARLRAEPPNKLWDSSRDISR

| Structure (SMILES) | target or system | assay | system | conditions | how to read | endpoint | value |
| --- | --- | --- | --- | --- | --- | --- | --- |
| CCS(=O)(=O)Nc1ccc(Oc2ccc(F)cc2F)c(-c2cn(C)c(=O)c3[nH]ccc23)c1 | – | fatal pneumonia sepsis | human, relapsed/refractory AML | oral, dose not given | – | treatment-emergent adverse events | 0% |
| Cn1c(-c2ccc(C(N)=O)cc2F)nnc1C(C)(C)Oc1c(F)cc(Cl)cc1F | – | – | human | oral, dose not given, single ascending dose all doses | – | number of TEAEs | 15 |
| C=CCNc1c(O)cc2c(O)c1C[C@@H](C)C[C@H](OC)[C@H](O)[C@@H](C)/C=C(\C)[C@H](OC(N)=O)[C@@H](OC)/C=C\C=C(/C)C(=O)N2 | – | – | unresectable or metastatic STS, GIST, other | intravenous, 300 mg/m^2 | – | patients with myalgia TEAE | 33% |
| C[C@]1(CO)Cc2ncn(-c3ccc(C#N)c(Cl)c3)c2C(=O)O1 | – | – | human, Chinese | 3 mg single dose | – | subjects with drug-related dizziness | 0% |
| CC(C)c1nc(N(C)S(C)(=O)=O)nc(-c2ccc(F)cc2)c1/C=C/[C@@H](O)C[C@@H](O)CC(=O)O | – | – | healthy human subjects | oral, dose not given, study CL-0537 safety set | – | incidence musculoskeletal disorders | 0% |
| COc1ncnn2ccc(-c3cnc4nc(C)n(Cc5nnc([C@@H](C)F)o5)c4c3)c12 | – | – | human patients | oral, dose not given | – | incidence of grade 1 nail discoloration | 14.3% |
| O=C([O-])CN1CCN(CC(=O)[O-])CCN(CC(=O)NCC2CCC(C(=O)N[C@@H](Cc3ccc4ccccc4c3)C(=O)NCCCC[C@H](NC(=O)N[C@@H](CCC(=O)O)C(=O)O)C(=O)O)CC2)CCN(CC(=O)[O-])CC1.[177Lu+3] (stereo partly shown) | – | ex vivo biodistribution | mouse 22Rv1 xenograft, tumour | 96 h post-injection | – | tumour uptake | 1.12 ± 0.01 %ID/g |
| C[C@H]1CN(c2n[nH]c3nc(N[C@H]4CC[C@H](NS(=O)(=O)CCC(F)(F)F)CC4)ncc23)CCO1 | CLK2 (Homo sapiens, UniProt P49760) | inhibitor, Kinobeads competition profiling | – | 0.16 µM | relative to: vehicle | relative abundance | 1.08 |
| COc1ccc(CCC2CCCC(CCc3ccc(OC)cc3)N2C[C@@H](O)CO)cc1.Cl (stereo in doubt) | – | – | rabbit Purkinje fibres | 0.1 µM, cycle length 1 s | relative to: baseline | resting membrane potential change | 0.5 ± 0.6 mV |
| Cc1cc(C)nc(Nc2ncc(C(=O)NCCc3c(C)[nH]c4ccccc34)cn2)c1 | – | – | mouse liver microsomes | 1 µM | – | maximal hepatic bioavailability | 24% |
| CN1CCN(S(=O)(=O)c2cc([N+](=O)[O-])ccc2N(CCOS(C)(=O)=O)CCOS(C)(=O)=O)CC1 | – | – | naive NOD/SCID mice, pooled blood | intraperitoneal, 25 mg/kg, week 1 | – | potassium | 8 mmol/L |
| C[C@@H]1NC(=O)[C@H](CCCCNC(=O)CO/N=C/C(=O)NCCCC[C@@H]2NC(=O)[C@@H](Cc3ccccc3)NC(=O)[C@H](CC(=O)O)NC(=O)CNC(=O)[C@H](CCCNC(=N)N)NC2=O)NC(=O)CNC(=O)[C@@H]2CCCN2C(=O)[C@H](CCCCNC(=O)CO/N=C/C(=O)NCCCC[C@@H]2NC(=O)[C@@H](Cc3ccccc3)NC(=O)[C@H](CC(=O)O)NC(=O)CNC(=O)[C@H](CCCNC(=N)N)NC2=O)NC(=O)[C@H](CCCCNC(=O)[C@H](CCCCN)NC(=O)[C@H](Cc2ccccc2)NC(=O)CNC(=O)CN2CCCNCCNCCCNCC2)NC(=O)[C@H](CCCCNC(=O)CO/N=C/C(=O)NCCCC[C@@H]2NC(=O)[C@@H](Cc3ccccc3)NC(=O)[C@H](CC(=O)O)NC(=O)CNC(=O)[C@H](CCCNC(=N)N)NC2=O)NC(=O)CNC(=O)[C@@H]2CCCN2C(=O)[C@H](CCCCNC(=O)CO/N=C/C(=O)NCCCC[C@@H]2NC(=O)[C@@H](Cc3ccccc3)NC(=O)[C@H](CC(=O)O)NC(=O)CNC(=O)[C@H](CCCNC(=N)N)NC2=O)NC1=O [copper-64 labelled] | – | – | normal mice, muscle | intravenous, 0.74 MBq, 3 h post-injection | – | tissue uptake | 0.34 ± 0.05 %ID/g |
| O=C(Nc1ccccc1)C1CCN(C(=O)Oc2cccnc2)CC1 | – | – | healthy women | oral, 20 mg, 7 days | – | adverse event Dizziness | 14.3% |
| CN1CC[C@@H](c2c(O)cc(O)c3c(=O)cc(-c4ccc(C(F)(F)F)cc4Cl)oc23)[C@@H]1CO | – | measured: Anemia | B-cell malignancies or AML | oral, 100 mg, continuous dosing | – | patients with adverse event | 0% |
| CCc1ccc(CC/C=C/c2ccc3c(c2)C(=O)CC3)cc1 | – | – | Sprague-Dawley rat, male, serum | oral, 30 mg/kg/day, 14 days | – | total protein | 54.8 g/L |
| O=S(=O)(Nc1ccccc1)c1ccc(NC(=S)Nc2ccccc2)cc1 | – | measured: BUN | male mouse, blood | oral, 20 mg/kg daily, 14 days | – | blood chemistry level | 18.5 mg/dL |

For quick reference, copied from above:
| Structure (SMILES) | target or system | assay | system | conditions | how to read | endpoint | value |
| --- | --- | --- | --- | --- | --- | --- | --- |
| CN1CC[C@@H](c2c(O)cc(O)c3c(=O)cc(-c4ccc(C(F)(F)F)cc4Cl)oc23)[C@@H]1CO | – | measured: Anemia | B-cell malignancies or AML | oral, 100 mg, continuous dosing | – | patients with adverse event | 0% |
